Assay results from different studies.
Parts stem from different laboratories: compare values within a part only. Changes are numbered by the printed parent chain.

Block 1 — target: inorganic phosphate, free oxyanion; method: microfluidic competitive inhibition; matrix: in vitro, cell-free expressed; concentration: not given; direction: lower = stronger binding
Setting: derived from inhibition constants, unchanged parent 615000 nM
Starting sequence: PafA, mature enzyme, eGFP fusion (Elizabethkingia meningoseptica, UniProt Q9KJX5); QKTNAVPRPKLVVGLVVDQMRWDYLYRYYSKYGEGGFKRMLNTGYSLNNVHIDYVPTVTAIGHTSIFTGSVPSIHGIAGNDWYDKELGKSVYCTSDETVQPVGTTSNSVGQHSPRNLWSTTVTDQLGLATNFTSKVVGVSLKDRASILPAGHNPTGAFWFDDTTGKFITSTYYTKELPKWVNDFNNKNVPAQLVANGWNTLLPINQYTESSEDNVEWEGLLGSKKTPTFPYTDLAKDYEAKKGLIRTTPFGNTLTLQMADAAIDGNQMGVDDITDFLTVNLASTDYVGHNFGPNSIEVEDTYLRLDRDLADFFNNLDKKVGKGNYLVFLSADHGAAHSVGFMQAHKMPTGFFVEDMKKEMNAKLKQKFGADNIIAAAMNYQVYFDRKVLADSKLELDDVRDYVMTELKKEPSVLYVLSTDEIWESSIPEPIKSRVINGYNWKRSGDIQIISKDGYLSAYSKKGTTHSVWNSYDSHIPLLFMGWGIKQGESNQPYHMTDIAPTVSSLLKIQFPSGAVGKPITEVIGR
Change	phosphate dissociation constant
S170G	1040 µM
T98G	544 µM
L478G	461 µM
L329V	535 µM
G127V	623 µM
A262G	543 µM
L364V	647 µM
I296G	375 µM

Block 2 — effect on: binding; method: phage display NGS; molecule type: peptide; reference: input library
Target: UDP-N-acetylglucosamine--peptide N-acetylglucosaminyltransferase 110 kDa subunit (OGT, Homo sapiens, UniProt O15294)
Chain of UniProt O15294 (whole entry, looked up): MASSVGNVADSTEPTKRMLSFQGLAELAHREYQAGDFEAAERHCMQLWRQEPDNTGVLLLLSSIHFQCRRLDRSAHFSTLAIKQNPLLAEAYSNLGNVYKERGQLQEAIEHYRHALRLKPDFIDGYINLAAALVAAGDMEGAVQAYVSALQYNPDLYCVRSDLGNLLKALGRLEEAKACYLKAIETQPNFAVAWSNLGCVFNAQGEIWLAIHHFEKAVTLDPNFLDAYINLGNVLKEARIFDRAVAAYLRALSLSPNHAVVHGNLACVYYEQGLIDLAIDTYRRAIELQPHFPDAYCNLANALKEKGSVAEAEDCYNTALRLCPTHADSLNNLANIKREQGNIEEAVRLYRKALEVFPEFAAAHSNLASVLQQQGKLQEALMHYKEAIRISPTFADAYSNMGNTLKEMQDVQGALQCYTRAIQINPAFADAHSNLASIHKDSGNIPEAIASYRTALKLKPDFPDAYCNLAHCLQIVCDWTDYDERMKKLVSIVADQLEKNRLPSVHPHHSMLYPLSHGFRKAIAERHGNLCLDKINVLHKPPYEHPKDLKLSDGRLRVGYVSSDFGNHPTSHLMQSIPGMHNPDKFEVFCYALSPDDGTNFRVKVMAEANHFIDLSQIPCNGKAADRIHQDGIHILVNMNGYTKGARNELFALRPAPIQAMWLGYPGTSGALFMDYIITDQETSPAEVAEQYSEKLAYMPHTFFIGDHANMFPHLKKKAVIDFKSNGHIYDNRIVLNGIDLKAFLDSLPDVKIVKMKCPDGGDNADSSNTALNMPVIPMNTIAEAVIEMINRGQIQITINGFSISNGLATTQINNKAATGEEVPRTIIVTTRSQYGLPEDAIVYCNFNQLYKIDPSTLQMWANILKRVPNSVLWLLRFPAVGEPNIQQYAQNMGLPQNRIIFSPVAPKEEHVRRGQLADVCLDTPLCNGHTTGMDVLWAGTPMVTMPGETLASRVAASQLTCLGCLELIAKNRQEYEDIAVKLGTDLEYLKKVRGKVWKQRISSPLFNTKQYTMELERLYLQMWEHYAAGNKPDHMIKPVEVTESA
Sequence	minimum log2 enrichment ratio
GHDSYMPFYQISLFR	3.07
NHTHMHRHPKDHQRE	2.32
HIQHYHHDIQYTRDL	2.71
HEFHRHHPPIDDLMR	1.84
SYVHSHAMHPYHSQH	1.75
KEVFLPQYPIEIQT	1.6
HRDVNNHSLHQSPTH	2.3
HTPMREHQQIHWHKF	2.99

Mixed results — CCNB3: CCNB3, cyclin fold, Cln2 fusion (human)
P1: viral docking peptide; KGVKRKLFAEDSS; partner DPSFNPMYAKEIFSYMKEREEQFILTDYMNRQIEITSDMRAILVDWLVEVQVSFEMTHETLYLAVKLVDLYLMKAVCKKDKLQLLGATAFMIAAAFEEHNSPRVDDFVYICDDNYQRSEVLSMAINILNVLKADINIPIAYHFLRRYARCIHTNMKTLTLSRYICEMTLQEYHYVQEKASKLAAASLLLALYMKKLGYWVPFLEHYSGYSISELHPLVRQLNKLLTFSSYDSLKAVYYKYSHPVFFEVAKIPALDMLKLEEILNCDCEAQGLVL
Molecule	target	assay	test system	conditions	how to read	quantity	result
P1 A9Y	CCNB3	yeast growth competition, sequencing	yeast	strong parent motif	reference: not given, higher = stronger binding	normalised enrichment score	2.75
COc1ccc(N2C(=O)NC(=O)C(=CNc3cccc(C)c3)C2=O)cc1	His6 tag	AlphaScreen counter screen		concentration not given		inhibition	1.4%
P1 A9N	CCNB3	yeast growth competition, sequencing	yeast	strong parent motif	reference: not given, higher = stronger binding	normalised enrichment score	2.54
AAAVRKPIVLKR	human cyclin B1	peptide binding, yeast competitive growth sequencing	peptide, Saccharomyces cerevisiae, cyclin B1-Cln2 fusion	concentration not given, peptide tiling library	direction not given	binding enrichment score	-0.0293
P1 R5L	CCNB3	yeast growth competition, sequencing	yeast	strong parent motif	reference: not given, higher = stronger binding	normalised enrichment score	0.228

Repeated from above (mixed results):
Molecule	target	assay	test system	conditions	how to read	quantity	result
P1 A9Y	CCNB3	yeast growth competition, sequencing	yeast	strong parent motif	reference: not given, higher = stronger binding	normalised enrichment score	2.75
COc1ccc(N2C(=O)NC(=O)C(=CNc3cccc(C)c3)C2=O)cc1	His6 tag	AlphaScreen counter screen		concentration not given		inhibition	1.4%
P1 A9N	CCNB3	yeast growth competition, sequencing	yeast	strong parent motif	reference: not given, higher = stronger binding	normalised enrichment score	2.54
